Published values gathered from unrelated publications.
Numbered parts are unrelated; each lists some results of a single study.

Set 1 — method: EMSA with sequencing; molecule type: double-stranded DNA, one strand shown; sample: in vitro; concentration: 10 and 20 nM; baseline: negative control set to 0; direction: higher = stronger binding
Target: Hepatocyte nuclear factor 3-alpha (Foxa1, Mus musculus, UniProt P35582, residues 1-468, full length assumed)
Chain of UniProt P35582 (whole entry, looked up): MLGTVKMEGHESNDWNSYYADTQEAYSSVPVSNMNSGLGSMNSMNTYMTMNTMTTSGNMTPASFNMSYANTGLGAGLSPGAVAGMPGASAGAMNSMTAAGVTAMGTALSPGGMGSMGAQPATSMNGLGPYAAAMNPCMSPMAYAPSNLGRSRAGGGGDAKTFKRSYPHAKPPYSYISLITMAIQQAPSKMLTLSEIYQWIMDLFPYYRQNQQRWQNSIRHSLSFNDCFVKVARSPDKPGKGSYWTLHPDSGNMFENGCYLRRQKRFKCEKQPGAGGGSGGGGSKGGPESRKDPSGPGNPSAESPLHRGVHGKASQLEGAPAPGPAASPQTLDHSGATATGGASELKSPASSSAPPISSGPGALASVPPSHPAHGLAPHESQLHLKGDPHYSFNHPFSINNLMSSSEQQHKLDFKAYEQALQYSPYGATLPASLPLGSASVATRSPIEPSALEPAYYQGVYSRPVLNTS
Notes: whole designed probe, mean of two concentrations, ends assumed
Shared flanks, not repeated: GTGAGCGGTGCCCATTGATGGGGAAC … TTTCACTGGGATCGTGGGGAC
| Oligonucleotide | normalised bound fraction [ratio] |
| --- | --- |
| TAGCTTTGAAAACTGTGAAAGGGGATAACCCATAATTTCTTTTTTGATAAAATGACATGCCCCAGGGGTGAGCTAGGTTTGCTTTGACAAGAAAGTAAACAAGGAGCAAGTGAAAGGAAATGAAAAATATATTACCAAACTCTCATCTTTCAGCTGCTGATGCTGCCTATTGTCAGCTGCAGCAGAGTGTAGA | 0.365 |
| TCAGGTTGCAGTGAGCTCTGATCGTGCCACTGCACTCCAGCCTGTGTGACAGAGCAAGGGCCTGTCTCTAAAAACAAAACAAAACAAAGCAAAACAATCTTGAGAAGTGCTGATTCATACCTTGCAAAGAGGTTTCATTCGGCAGCAAGTTGAAATTATCTACTGGTTTGTACATGAGCTAGCACTTCCTCTT | 0.0239 |
| CTGTATCCATCTGGGCAGTATCTTCTCTGGGCCTGGCCTGTCATAGGTGCTTCAGGTTTCCCCATTTGAACCAGATACCAGTCGGGTTACCGGATGTTTGCTTAAAATGAGTCATAGGCTTCCTGCTATTCCTGTGCTGCTTCCAGCTAGGACTGATCGAATCAGTCTGGATTTTCCTTGGGGTGATCCGCAG | 0.135 |
| GTTGCCATAGCTCTGCTGAATGATCATTTGTTGGATTCCATGAATCTCAAAAAAATGAAAGGATCTCTCTTTAGGTGTGTCTGGGGCTATCAAAGTAATCTAGTCAGATGAATTATTGATAGGCTTTGGATCAATGAAATGCCACTGGAATGACAAATGATAAGCACAGTAAAACTGTCACAATCCTTATTCC | -0.064 |
| TTAGACCCTTTAAGTAAATTGCAAACAGTTCCCCCTGTGTGAAGCATTGTCTAGCCTACCAAACTGCCTGAAACAATCGTTGACATTTCTTGTGTAAATAACAGCAGTGGATTCAGCGCTTCCAAGAATGGGAGTTGAAAAAATAATGAACTATGTTTTTTTCAAGATAAAACACACTGTGCTCTCCAGAAAT | 0.46 |
| TGAGAATTGAACAGGGTGTAAAGAACCTGGAAAGCACCTGGAACAGTGCCAGCCCATAGTAAGTACGCAGCGAGAATGAGCTATTTGTATTGTGTAAACATGGTGGACAGTGTCTGTTATGTATCCAAAATGATTGTTGTTGGAGACTAAGAGAAAATGGATGCAGCTACAGTACTGAGGAGGCTGCAGTGTC | 0.424 |
| GGTATAACTAAACAAACAAACAAACAAAAAGATACTAAAGATACCGTCTATAATTGGACCCAGGTCAGTGGTGCCTCCAGGCACCTGGCCAAAGTCAACACAGGGGGTTTGGAAGCGGAAGATAATATCAACAATGGCTAACACATTCAACGCACAAAACAGAATCCTGTTAGAACAGGTGAGAAGTAGGGCT | 0.537 |
| TGCTTAATTCTCCATTTCAAAACATTCCAGGAATGGAAAAATGATTCAGCTGGAAGGCATTCGCCCTGTCAGCACCCTATTATCCTAACACAGTGTTTACTCTGTTACTGGTTTCAGTTATCCCTACACAGTTTGATAATCATTTTTGAAGCCAGCCTGGTGTATAACTTAGCACTGGTTCATAGCATGTTTA | 0.305 |

Set 2 — method: RNA Bind-n-Seq; molecule type: RNA; sample: in vitro; concentration: 365 nM; baseline: no-protein control; direction: higher = stronger binding
Target: RNA binding protein fox-1 homolog 2, RRM domain, GST-SBP tag (RBFOX2, Homo sapiens, UniProt O43251-10, residues 100-194)
Notes: natural RNA segment, single round, ends assumed
Shared flanks, not repeated: GGGAGUUCUACAGUCCGACGAUC … UGGAAUUCUCGGGUGCCAA
Construct (chain): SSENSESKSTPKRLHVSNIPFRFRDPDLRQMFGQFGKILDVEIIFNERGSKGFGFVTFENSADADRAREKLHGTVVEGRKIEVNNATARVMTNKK
| Oligonucleotide | RBNS enrichment (R) |
| --- | --- |
| AAAGAGAUGAAGGAAGGAAGGAAGAGAAAAACAAAGUCAUUUGUUCAUAGUGAGGUCUCCAGCUAUGUACAUGCCGUCAGUCCUCUGGUCUCUUGAAUGUAGCCCCACCC | 0.267 |
| CGCGGUAUGUUGAGUGUUUCCACUACAGAGCAUCAUUUCCCAUGUGCCACUUGUAAAUGUUUUGCAGCCAGCACCUGAGGACUUCUUAUACAGUCAUAAAGCCACCUAGA | 0.603 |
| AAUUGGGCUUAAAAAUUGACAUGCAAUCUCUUAAGUUUUUUGUUCAGCUACUUCACACUGAGUACCUCAAAUCUGCUCUGGAGUCGAUUAUGCCACCUGUGUGUCAGGAU | 0.406 |
| UUAGCCCAUUGCCAAAAGGUUUUACUGUCUUAAAGCUGUCUUUCUGAGAUCUAAUUCCAAGGACUUCUCCACAGCUAAGUGAGAUGCCUCACACCAUUAGGUGAUGCUUU | 0.32 |
| UAGCUAUUUUCACUUGUAUGUAUAUAUUGUAUAUACAUAUAAGUGUCUGUAUGUGUGUAUAGAUGGAUUGGUAUAACUCAUUCUAAACGUGUCUGCCAGGGCUCAAGUUU | 0.334 |
| AAGGGCAGUGGGACUUGAGUAUUCUACAGAAAAAUUGAUACAGUCAUGCAAGAGGUAGGGGGGUAAAGAAUAAGUAGUCCUAUCAAUCAGGUAUAAGUUGUUUCAAGAGA | 0.508 |
| AUAGAGGUCAUAUAGUUGGGCCAUGGGGCAAUUGUUGGCAGCCAUGACUGACGGCCCCUUGUGCAAGCUCAUUCUUCAGUGGAUCCUUCAGUGGAGUGGUGACACGUGCC | 0.241 |
| AACUGUAAAGUUCAAUUGUGAAAAUGAAUAUCAUGCAAAUAAAUUAUGCAAUUUUUUUUUCAAAGUACUACUGCAUCUUUGAAGUUCUGCCUGGUGAGUAGGACCAGCCU | 1.18 |
| UGACAUAAACCAUUCAUUGCUACCUUGCUUAUUGUGUUUUUACGCGGUUUUAUACUUUUUUUAUGAGUUAUGAUAGCAGCAAUUACGUUGUUUGUAUUUUGCUUAACUAA | 0.409 |
| CAGGCUUGUUCCCACACUACCUCUUUAAAGCGAUUCUUCCUAUGCUGGUCUGUUCAAUCCUGCCCUCUUUGGUGCUAGAUCCAGUUGUGCCUCAGAGCAGAAGAAACAAA | 0.482 |
| AUACCAGACCUCUGAAUUUGUAUUUUUUCUUGUUAACCAUUUUAAUUUGUUGGCUGGAUGUAUAAAGAUGUUUAAAAAAUUCAGUUGCUUUUUUGGGGUAAUUUGAAUUA | 0.626 |
| AGACGAAAGGGAGGGCCAAGGGCACCCCAGUUAACUGCCAGGACUGGCAGAGAGGUCCUGUGAGUCAUUUGAUGGACGAGUGCCUUUGACUGUGCUAGAUCUUCACUUCG | 1.16 |

Set 3 — method: universal PBM; molecule type: double-stranded DNA, one strand shown; sample: in vitro; concentration: not given; direction: higher = stronger binding
Target: Sal-like protein 4, full length isoform B (SALL4, Homo sapiens, UniProt Q9UJQ4-2, residues 1-616)
Notes: 8-mer, flanks averaged, mean of replicates
| Oligonucleotide | E-score |
| --- | --- |
| GAGCACAC | -0.157 |
| CCGACTCA | -0.152 |
| CCCCAGCC | -0.259 |
| CGATTTAC | 0.00782 |
| ATGTAAAC | 0.223 |
| CAGGTAGA | -0.0859 |
| CATATTCC | 0.276 |
| CGCGTTAA | -0.16 |
| CCGGGCGC | -0.374 |
| CGAAACCG | -0.213 |
| AGGGGGCC | -0.325 |
| CCAGATAA | 0.18 |
| AAGAATAA | 0.3 |
| AGATTACG | 0.0588 |
| AATGAGTA | 0.278 |
| GATCCTGC | -0.213 |
| ATACCCAA | 0.0616 |
| AGTGGGTC | -0.285 |
| AAGTGGAT | 0.00267 |

Set 4 — method: RNA Bind-n-Seq; molecule type: RNA; sample: in vitro; concentration: not given; notes: RNA with constant flanks, ends assumed; baseline: input RNA pool; direction: higher = stronger binding
Target: RING finger protein unkempt homolog, zinc fingers 1-6, GST-SBP tag (UNK, Homo sapiens, UniProt Q9C0B0, residues 30-357)
Shared flanks, not repeated: GGGAGUUCUACAGUCCGACGAUC … CAACAGAGGAUUGAGCAUCA
Residues (chain): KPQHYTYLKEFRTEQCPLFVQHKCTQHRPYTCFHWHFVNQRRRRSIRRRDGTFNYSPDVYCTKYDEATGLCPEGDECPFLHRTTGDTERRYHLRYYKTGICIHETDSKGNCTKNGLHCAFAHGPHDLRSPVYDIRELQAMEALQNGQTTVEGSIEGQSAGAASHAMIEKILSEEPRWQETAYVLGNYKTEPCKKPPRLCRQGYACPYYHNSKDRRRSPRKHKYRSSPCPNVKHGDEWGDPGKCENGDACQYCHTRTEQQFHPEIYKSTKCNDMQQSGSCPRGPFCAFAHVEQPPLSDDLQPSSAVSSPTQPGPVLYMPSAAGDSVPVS
| Oligonucleotide | bound/input enrichment [ratio] |
| --- | --- |
| CUGCUUUUGAUCCUGCCUGUUGUUGAAGCAGUGGAAGCUGGAGACGCGAUUGCACUCUUAUCCGGUGUGGUUCUCAGCAUUACCGGCAUCUGUGCUUGCUUGGGGAUAUACGCAAGAAAG | 0.0301 |
| GACAGUGAAGAAGAAAUUAGAGAAGCAUUCCGUGUGUUUGAUAAGGAUGGCAAUGGCUAUAUCCGUGCUGCAGAACUUCGCCAUGUGAUGACAAACCUUGGAGAGAAGUUAACAGAUGAA | 0.569 |
| UCAUACAGUGUCAGAACAAAGGCUGGGAUGGGUAUGAUGUACAGUGGGAAUGUAAGACGGACUCCGAUAUUGCAUACAAAUUUGGAAAAACUGUGGUGAGCUGUGAAGGCUAUGAGUCCU | 0.276 |
| UGCAAUUGGGUAGUGGACACUUGUUUACAUAAGGGAAGUCGAGAUAACAUGAGUGUUGUAUCCGUUUGCUUUUCAAAUGCCCCCAAGGUCUCAGAGGAAGCCGUGAAGAGAGAUUCAGAG | 0.221 |
| UUUAUAUUUAACUAAAUGUAAGGUACGAACUAUGACAUAUUAAACUUUUCUUGCCCUUCCCCGUUCUGAGGUAGAUGUGCACAUAUCUGCCACCACAUUCCAUAUGUGUUGAGUAGUUAA | 0.572 |
| AGUCAUCUAGAAAGAAUCUGGGCAACUGGUAACCAUGAGCGAAUGGAUGAAGAAAAGCCCCUCCGAAUGGGAAGAUUACGUUUAUAAAGAAGUGAGAGUGAUAGCCUGUGAGAAGGAGUA | 0.377 |
| ACCACUGAGAGCAGUCAAUCCUUUGUUGCAGUACAUCACAGUGAGGAAGGCAGGGAUACCUCCGGAAGCAGUACAAAUCUUCAUAAUCACUCUGAGGGAGAGUAUAUUCCAGGAGCUUGU | 0.646 |
| GUUUCUCCAGAGGAAGCAAUCAAAUGUGAAGACAAAUUCACAAAAUCCAAAACUGUUUACCGCAUUCUUCGUCAUGUUGCUGAGGUGUUAGAAUACACCAAGGAUGAGCAGCUGGAAAGC | 0.135 |
| CGGGAUGAGGAGGUCAGCUCUGCUGACAUCAGUAGUUCGUCUGAAGUGAUUUCGCAGCACCCCGUAUCUUACAGGAACAUCGAAGAGCUUCAGCAGCAGAAUCAGCGUCUGCUAUUCGCU | 0.114 |
| AGAAAUUUUUGUAUUUUUCUUUUACAGAUUUUAACUACGAUGAUUUUUUUCUAAAUUAAGCCGGUCAGGUUGUCAAAGUCAGUGCAAUAGUAAUACAACUUCCUUUUUAAGAAAACCCAA | 0.364 |
| GAAAGCACUACCCUAAGCCAUGAAGAACUCCAUGCUUUGCUAACCAAGAUAACUGUUUUCUCUUUGCCGAAGUUUUGUUUUUGAAAUGUGUAUUUCUAAUUAUAUAAAAUAUUAAGAAUC | 0.599 |

For quick reference, copied from above (set 3):
| Oligonucleotide | E-score |
| --- | --- |
| CCGACTCA | -0.152 |
| CCCCAGCC | -0.259 |
| CGATTTAC | 0.00782 |
| ATGTAAAC | 0.223 |
| CAGGTAGA | -0.0859 |
| CATATTCC | 0.276 |
| CGCGTTAA | -0.16 |
